Experimental data of several laboratories.
Each numbered part is a random draw from the data of one study; scales do not carry over between parts.

Series 1
Target: Interferon regulatory factor 5, full length, phosphomimetic (IRF5, Homo sapiens, UniProt Q13568-2, residues 1-514, K96S/S451D/S453D/S456D/S462D)
Technique: protein-binding microarray
Molecule type: double-stranded DNA, one strand shown
Medium: in vitro
Concentration: 250 nM
Notes: 60-bp whole probe
Added: salmon DNA 0.4 mg/ml
Reference: random background probes
Direction: higher = stronger binding
Constant ends, left off below: GCCTAGCAC … GTCTTGATTCGCTTGACGCTGCTG
| Strand | log fluorescence [z-score] |
| --- | --- |
| TTAGGTATCGGGTTTCGATTAGTGCTA | 7.66 |
| GACGGATTCCTTATCCTGACGTGCTAG | -0.105 |
| TTAGGACTGGACTTTCGGCTAGTGCTA | 6.27 |
| TCATTTTTTTTCTTTAAACTGTGCTAG | 1.32 |
| TTACATCTCAGTATCGATTAGTGCTAG | 7.1 |
| TTAGGTATCCTTAACCTTTAGTGCTAG | 0.124 |
| TCACCTCTTTTTTTGGTACTGTGCTAG | 0.963 |
| TTAGATCTAAGTATCGATTAGTGCTAG | 5.85 |
| GACGGTATTGGGTATCGGGACGTGCTA | 0.764 |
| GACGGTATCCTTCTGCTGACGTGCTAG | 0.17 |
| TTAGGTATCGACACTGTGTTAGTGCTA | 2.32 |
| CTCATTCTCTGTTTATGTCTGTGCTAG | 1.06 |
| GACGTTTCCAGTTTCGAGACGTGCTAG | 5.16 |
| ACTTTTTTTTTTCCCTGAAAGTGCTAG | 1.84 |
| GCCGATTTCAGTCTCGAGACGTGCTAG | 2.13 |
| TCGGGTCTCCCTTGAGGTTTGTGCTAG | -0.456 |
| TTAGGTTTCATTTCCCTTTAGTGCTAG | 3.49 |
| ATTCATATATATATGAAAAAGTGCTAG | 1.11 |
| GACGATTTCTGTATCGAGACGTGCTAG | 3.02 |
| TCATTTATGCACTCTCTAACTGTGCTA | 0.585 |
| TCATTTTTGTTGTTTTTACTGTGCTAG | 2.23 |
| TTATGACTGGGTCTCGGTTAGTGCTAG | 0.161 |
| AGTTCTAAGGATTTCAGTTTGTGCTAG | 0.633 |
| CACTCTTGCTTTTTAGATCGGTGCTAG | 0.692 |

Series 2
Target: Ras GTPase-activating protein-binding protein 1, full length (G3BP1, Homo sapiens, UniProt Q13283)
Sequence of UniProt Q13283 (whole entry, looked up): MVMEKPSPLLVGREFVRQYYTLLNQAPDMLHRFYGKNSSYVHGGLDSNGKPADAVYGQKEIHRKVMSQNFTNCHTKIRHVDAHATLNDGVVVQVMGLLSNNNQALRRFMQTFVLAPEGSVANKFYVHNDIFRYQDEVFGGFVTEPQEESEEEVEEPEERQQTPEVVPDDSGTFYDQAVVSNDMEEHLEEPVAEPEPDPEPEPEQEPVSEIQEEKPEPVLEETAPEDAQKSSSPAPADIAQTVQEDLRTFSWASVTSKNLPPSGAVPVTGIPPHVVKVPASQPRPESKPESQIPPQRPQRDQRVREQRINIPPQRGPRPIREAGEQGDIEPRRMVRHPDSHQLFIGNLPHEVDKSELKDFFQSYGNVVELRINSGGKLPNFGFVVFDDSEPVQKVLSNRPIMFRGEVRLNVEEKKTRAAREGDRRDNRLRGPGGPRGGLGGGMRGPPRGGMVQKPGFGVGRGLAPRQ
Technique: RNA Bind-n-Seq
Molecule type: RNA
Medium: in vitro
Concentration: 200 nM
Notes: whole 134-nt RNA, ends assumed
Added: 150 mM KCl
Reference: input library
Direction: higher = stronger binding
Constant ends, left off below: GGGAGUUCUACAGUCCGACGAUC … UGGAAUUCUCGGGUGUCAAGG
| Strand | log2 enrichment |
| --- | --- |
| GUCCUGUGCUACACAUCGUAUGUACCGAAUCGGGGAAAAAGGAAAAAGGGGAAAAAGGAAAGUAUUAUGUUACGCCGUUCGGAUCUGCAC | -0.387 |
| GCAGGAAGUAAAAACAAAUGGAAAUGCUUCGGAGAGUGGCAGGGGUGGGGGUUGCUAAGGAAAGGGUGGGAUGGGAGUGGGUAAAGAGUU | 1.17 |
| CAAGUCCUGUGCUACACAUCGUAUGUACCGAAUCGGGAAAGGGAAAGGGAAAGGGGAAAGUAUUAUGUUACGCCGUUCGGAUCUGCACUU | 0.623 |
| CCUGUGCUACACAUCGUAUGUACCGAAUCGGGUUUUUUUGGUUUUUUUGGGGUUUUUUUGGAAAGUAUUAUGUUACGCCGUUCGGAUCUG | -1.04 |
| GUCCUGUGCUACACAUCGUAUGUACCGAAUCGGGGAAAAAAAGGGGUUUGGGGAGGGGAAAGUAUUAUGUUACGCCGUUCGGAUCUGCAC | 0.444 |
| UGGCCCUGGUGGCAUGCGCGGAGGAAGAGGUGGCCUCAUGGAUCGUGGUGGUCCCGGUGGAAUGUUCAGAGGUGGCCGUGGUGGAGACAG | 0.14 |
| CAAGUCCUGUGCUACACAUCGUAUGUACCGAAUCGGUGGUUUUUUUGGUUUUUGGAAAGUAUUAUGUUACGCCGUUCGGAUCUGCACUUC | -0.945 |
| CACAGACAACACGCACCCACACAGACACAGAGGGAAGGGGUUGGGAUGGGGACAGGGUGCACAGCAGGGCGGGGUAGGACCCCAUCCCCU | 2.04 |
| UCCUCAAGUCCUGUGCUACACAUCGUAUGUACCGAAUCGGGCGGCGGCGGGAAAGUAUUAUGUUACGCCGUUCGGAUCUGCACUUCCAGC | -0.341 |
| UGGGAGGUGGAUUUUGUUUAUUUUUUUAGCUCAUUUCCAGGGGUGGGGAUUUUUUUUUAAUAUGUGUCAUGAAUAAAGUUGUUUUUGAAA | 0.673 |
| AAGUCCUGUGCUACACAUCGUAUGUACCGAAUCGGGCCCCGGGCCCCGGCCCCGGGGAAAGUAUUAUGUUACGCCGUUCGGAUCUGCACU | -1.26 |
| AAGUCCUGUGCUACACAUCGUAUGUACCGAAUCGGGUUUUUUUGGGUUUGGGAGGGAAAGUAUUAUGUUACGCCGUUCGGAUCUGCACUU | 0.156 |
| CACAGACAACACGCACCCACACAAAAACAGAGGGAAGGGGUUGGGAUGGGGACAGGGUGCACAGCAGGGCGGGGUAGGACCCCAGCCCCU | 1.77 |
| UAACUUUAGAGGAGGAUCUGAUGGAUAUGGCAGUGUACGUGGAUUUGGGGAUGGCUAUAAUGGGUAUGGAGGAGGACCUGGAGGUGGCAA | 0.322 |

Series 3
Target: RNA binding protein fox-1 homolog 2, RRM domain, GST-SBP tag (RBFOX2, Homo sapiens, UniProt O43251-10, residues 100-194)
Technique: RNA Bind-n-Seq
Molecule type: RNA
Medium: in vitro
Concentration: 365 nM
Notes: natural RNA segment, single round, ends assumed
Reference: no-protein control
Direction: higher = stronger binding
Constant ends, left off below: GGGAGUUCUACAGUCCGACGAUC … UGGAAUUCUCGGGUGCCAA
Target sequence (chain): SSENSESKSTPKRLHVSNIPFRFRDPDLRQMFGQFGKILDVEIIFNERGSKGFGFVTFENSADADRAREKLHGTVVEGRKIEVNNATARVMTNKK
| Strand | RBNS enrichment (R) |
| --- | --- |
| CCACCCUCACAGUUCUAACUUAGCAAGUGCUUUUCUUUAGAACCCCUUCUUAACGAGCAAUAUGUCUGACCUGUACUAUAAGAUCUUUCUGAUAACGCAGAGAUUUUUUG | 0.463 |
| GACUGAAAUAUCUUGACAGUUGAGAUGUGGUCAGGUGAAAAGCUACAUCUCCAUUACAAGUUGGAACUCAGUAGAAUCAAACCUUGUUACUUUAAGAUCUGUAGAAAUAA | 0.654 |
| UCACCACCAGCAUUCUCUGCCUGUGGGGUUGUGGGGCUGGUGCUUUCUCCAUUUCUGAGGGUCAGGAUGGCCAAGCAUGGAUUAACACUAGGAGAGUGCAGAGCGCAGCA | 14 |
| CCUGCCCCCACCUUCCCAGUCCCACAGGCCACCCCUGGCUUGGGCUGGGUUCUGUGAAGUUACGUAUUUAUUGAGCUUUUGGUUCUUUUAUAAAGACUUGUCUAGACUCC | 0.307 |
| UUGUAAACCCACAGUUGUAAGCUUAGUGACUUCACAUGUAUGUAGCAUUGGUACUGGUCUGAGCCACCUGCUACCCAGUAGAUAGAUAACCUUUUUGUUAGUGUUUAAGG | 1.16 |
| GUCAUUUUCUCAAAUCAUAUUCCAUUGUAUCAGUUAACAUAUAGUUUUAAAUGUAUGUAUUAUAAAUAUCUGUAACCAAAUCAUUUGAAGGCUUGAUAAAUUUUUAACAA | 1.26 |
| CUCAGAAAUAAAUCACAGAUGCAUAUAGACACACAUACAUAAUGGUACUCCCAAACUGACAAUUUUACCUAUUCUGAAAAAGACAUAAAACAGAAUUUGGUAGCACUUAC | 1.02 |
| UUAAAUUUUUGUAAAUAUUUUGAUUUAAUGUGUCUUAGAUCCUCAUUAUUUUAAUACAGGAAAAGAAAAGAUUUAGUAAUUUCUUACCAUGCUAAUAUGUAAAGUUCAUG | 0.73 |
| CUACUCUGCCACAGACUCGAGUAAGAAAAUGUUCUCUUGAUGACACAGUGCUCCUACUCUAUCCACAUUAAGUAGCACUUUUGUGGUAGAACUGAUUCUUAAGGCAGGCC | 0.487 |
| UCUCCCGAGAGUGGCAGUCCUUUGAAUCGCUUCCCAGGGUGAAAGAUGGAAAGAGAUGAGCCUAAGGAUACCAGGUUCAAAACGGUUAUGACCAUACACACAGGCAUUUU | 0.492 |
| UGUGUGUGUGUGUGUGUGUGUGGAUGUAUUGACCUGUGUUUCCCAAGACAGCAGGUGCCACGGCCCGCCCCGCCUGCCAGCCCGAAUUCCCGUUCUCCUGUGUCUACUAA | 1.3 |
| CUCCAGAGGGCUUCCUGCCACAGAAGUGCUGCCAAGCAGAAGAACCUGUGCCAACUGUGGAGUGGGGAGGCAGGGCCUGAACCCUCAAUCCCUGCAGCCUAGCCUCCCCA | 0.351 |

Series 4
Target: Histone acetyltransferase KAT6A, winged helix 2, GST fusion (KAT6A, Homo sapiens, UniProt Q92794, residues 85-181)
Technique: protein binding microarray
Molecule type: double-stranded DNA, one strand shown
Medium: in vitro
Concentration: not given
Notes: 8-mer, flanks averaged, mean of 2 arrays, mostly near background
Reference: not given
Direction: higher = stronger binding
Residues (chain): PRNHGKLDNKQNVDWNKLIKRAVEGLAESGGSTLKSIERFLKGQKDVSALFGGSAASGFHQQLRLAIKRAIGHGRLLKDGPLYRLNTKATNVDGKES
| Strand | E-score |
| --- | --- |
| AGCACAGA | 0.181 |
| GATCGAGA | 0.083 |
| AAATGAGC | 0.126 |
| GAGGGAGA | -0.109 |
| ACTGATCA | -0.0104 |
| GCAGTAGC | 0.0392 |
| ACCAATGA | -0.233 |
| CAATTCCG | 0.116 |
| GACCGAGA | 0.112 |
| ACATCGCC | -0.0366 |
| CCAGTCGA | -0.0304 |
| ACCCGGGT | 0.126 |
| AGACATAC | -0.0481 |
| CTCTCTAC | 0.0302 |
| GCCAGGAA | -0.00831 |
| CCCTGGAA | -0.123 |
| ATGTAGTG | -0.14 |
| CGTGGTAA | 0.059 |
| AGTCTTCG | -0.0394 |
| CACGAAGG | 0.102 |
| TCCATGCA | 0.0466 |
| GCATTTGA | 0.00094 |
| AAGGTTAT | -0.0334 |
| CTGTAGAC | -0.027 |
| CACGACTC | -0.0532 |
